Measurements from different studies.
Parts stem from different laboratories: compare values within a part only.
Sequence of UniProt Q9UQB9 (whole entry, looked up): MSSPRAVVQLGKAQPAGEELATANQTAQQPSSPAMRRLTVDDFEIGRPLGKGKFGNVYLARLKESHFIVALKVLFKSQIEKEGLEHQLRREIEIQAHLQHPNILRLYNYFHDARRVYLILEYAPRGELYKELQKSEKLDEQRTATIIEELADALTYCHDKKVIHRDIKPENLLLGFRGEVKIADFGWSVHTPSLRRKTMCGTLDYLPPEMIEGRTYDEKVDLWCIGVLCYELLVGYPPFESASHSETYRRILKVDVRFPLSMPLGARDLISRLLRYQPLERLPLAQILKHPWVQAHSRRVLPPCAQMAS
Sequence of UniProt Q9H2K8 (whole entry, looked up): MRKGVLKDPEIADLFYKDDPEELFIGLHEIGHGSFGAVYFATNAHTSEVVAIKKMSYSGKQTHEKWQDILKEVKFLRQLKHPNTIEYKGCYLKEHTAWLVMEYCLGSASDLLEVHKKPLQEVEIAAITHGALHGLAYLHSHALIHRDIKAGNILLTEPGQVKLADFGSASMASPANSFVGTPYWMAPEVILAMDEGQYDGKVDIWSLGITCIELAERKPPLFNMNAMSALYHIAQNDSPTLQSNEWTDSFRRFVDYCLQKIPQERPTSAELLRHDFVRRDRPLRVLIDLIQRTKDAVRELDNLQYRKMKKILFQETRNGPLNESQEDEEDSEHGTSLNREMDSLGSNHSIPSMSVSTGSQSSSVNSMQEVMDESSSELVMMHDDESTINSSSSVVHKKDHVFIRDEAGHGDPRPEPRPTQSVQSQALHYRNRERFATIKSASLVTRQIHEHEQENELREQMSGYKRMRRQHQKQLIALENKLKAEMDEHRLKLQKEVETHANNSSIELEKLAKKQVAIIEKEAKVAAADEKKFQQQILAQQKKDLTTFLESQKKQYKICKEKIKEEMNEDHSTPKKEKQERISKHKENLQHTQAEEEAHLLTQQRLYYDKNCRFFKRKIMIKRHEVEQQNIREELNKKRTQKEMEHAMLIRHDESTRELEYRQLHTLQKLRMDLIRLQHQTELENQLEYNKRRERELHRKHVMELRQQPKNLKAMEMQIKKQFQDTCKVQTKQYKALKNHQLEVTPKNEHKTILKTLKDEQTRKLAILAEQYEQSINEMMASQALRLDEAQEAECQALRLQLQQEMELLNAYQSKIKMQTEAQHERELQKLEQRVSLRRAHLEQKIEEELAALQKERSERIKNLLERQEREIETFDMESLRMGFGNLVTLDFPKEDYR
Sequence of UniProt O75460 (whole entry, looked up): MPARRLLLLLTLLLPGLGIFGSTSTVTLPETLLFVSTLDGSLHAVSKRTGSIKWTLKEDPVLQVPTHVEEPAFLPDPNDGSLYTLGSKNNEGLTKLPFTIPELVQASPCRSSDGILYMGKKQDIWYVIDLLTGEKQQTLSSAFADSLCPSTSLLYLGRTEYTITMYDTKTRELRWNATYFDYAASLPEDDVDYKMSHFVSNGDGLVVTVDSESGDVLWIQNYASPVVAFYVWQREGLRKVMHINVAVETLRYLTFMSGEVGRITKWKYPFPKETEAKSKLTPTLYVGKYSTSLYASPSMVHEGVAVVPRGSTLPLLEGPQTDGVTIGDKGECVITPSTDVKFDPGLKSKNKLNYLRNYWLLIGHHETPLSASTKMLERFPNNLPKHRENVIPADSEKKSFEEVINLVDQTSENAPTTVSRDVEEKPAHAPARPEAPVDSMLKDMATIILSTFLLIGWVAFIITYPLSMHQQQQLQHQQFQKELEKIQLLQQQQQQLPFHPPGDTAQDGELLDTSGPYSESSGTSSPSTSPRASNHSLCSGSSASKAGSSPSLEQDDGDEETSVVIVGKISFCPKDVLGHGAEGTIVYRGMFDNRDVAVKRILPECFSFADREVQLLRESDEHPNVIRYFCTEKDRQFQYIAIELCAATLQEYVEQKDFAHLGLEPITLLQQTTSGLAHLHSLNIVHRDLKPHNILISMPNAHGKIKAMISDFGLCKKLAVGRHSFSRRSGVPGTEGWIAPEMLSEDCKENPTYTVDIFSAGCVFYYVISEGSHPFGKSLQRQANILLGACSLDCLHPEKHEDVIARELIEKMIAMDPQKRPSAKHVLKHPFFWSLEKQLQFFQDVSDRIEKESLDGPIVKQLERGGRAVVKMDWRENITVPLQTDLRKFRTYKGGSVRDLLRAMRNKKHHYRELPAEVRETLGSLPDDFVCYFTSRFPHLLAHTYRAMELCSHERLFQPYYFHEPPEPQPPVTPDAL
Sequence of UniProt Q13873 (whole entry, looked up): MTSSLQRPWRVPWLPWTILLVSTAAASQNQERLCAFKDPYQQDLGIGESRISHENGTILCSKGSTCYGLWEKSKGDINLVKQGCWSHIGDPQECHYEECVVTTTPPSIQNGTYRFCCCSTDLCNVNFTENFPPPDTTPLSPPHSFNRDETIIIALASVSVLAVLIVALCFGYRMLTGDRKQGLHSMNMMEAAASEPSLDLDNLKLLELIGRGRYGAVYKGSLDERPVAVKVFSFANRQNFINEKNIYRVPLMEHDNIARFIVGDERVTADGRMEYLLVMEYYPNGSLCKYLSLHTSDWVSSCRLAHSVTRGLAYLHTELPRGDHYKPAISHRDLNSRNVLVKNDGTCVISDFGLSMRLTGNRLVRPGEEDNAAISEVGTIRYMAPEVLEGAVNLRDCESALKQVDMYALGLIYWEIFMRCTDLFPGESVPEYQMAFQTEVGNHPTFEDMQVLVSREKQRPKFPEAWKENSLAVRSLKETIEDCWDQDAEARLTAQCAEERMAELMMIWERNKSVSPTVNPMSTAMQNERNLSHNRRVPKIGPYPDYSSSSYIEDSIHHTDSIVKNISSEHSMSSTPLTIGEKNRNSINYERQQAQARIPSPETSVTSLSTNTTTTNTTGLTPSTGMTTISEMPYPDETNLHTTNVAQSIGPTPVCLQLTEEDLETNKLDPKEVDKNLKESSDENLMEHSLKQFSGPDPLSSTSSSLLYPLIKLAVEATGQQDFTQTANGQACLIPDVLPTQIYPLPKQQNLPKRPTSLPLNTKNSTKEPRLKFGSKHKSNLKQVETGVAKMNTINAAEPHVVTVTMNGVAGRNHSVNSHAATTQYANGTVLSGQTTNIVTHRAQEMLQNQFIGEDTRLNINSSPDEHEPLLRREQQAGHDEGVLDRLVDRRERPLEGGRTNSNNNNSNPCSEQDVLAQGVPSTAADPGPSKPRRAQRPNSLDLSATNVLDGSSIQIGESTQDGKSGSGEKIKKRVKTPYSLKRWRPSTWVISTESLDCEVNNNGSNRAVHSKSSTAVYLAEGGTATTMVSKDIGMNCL
Sequence of UniProt Q96L34 (whole entry, looked up): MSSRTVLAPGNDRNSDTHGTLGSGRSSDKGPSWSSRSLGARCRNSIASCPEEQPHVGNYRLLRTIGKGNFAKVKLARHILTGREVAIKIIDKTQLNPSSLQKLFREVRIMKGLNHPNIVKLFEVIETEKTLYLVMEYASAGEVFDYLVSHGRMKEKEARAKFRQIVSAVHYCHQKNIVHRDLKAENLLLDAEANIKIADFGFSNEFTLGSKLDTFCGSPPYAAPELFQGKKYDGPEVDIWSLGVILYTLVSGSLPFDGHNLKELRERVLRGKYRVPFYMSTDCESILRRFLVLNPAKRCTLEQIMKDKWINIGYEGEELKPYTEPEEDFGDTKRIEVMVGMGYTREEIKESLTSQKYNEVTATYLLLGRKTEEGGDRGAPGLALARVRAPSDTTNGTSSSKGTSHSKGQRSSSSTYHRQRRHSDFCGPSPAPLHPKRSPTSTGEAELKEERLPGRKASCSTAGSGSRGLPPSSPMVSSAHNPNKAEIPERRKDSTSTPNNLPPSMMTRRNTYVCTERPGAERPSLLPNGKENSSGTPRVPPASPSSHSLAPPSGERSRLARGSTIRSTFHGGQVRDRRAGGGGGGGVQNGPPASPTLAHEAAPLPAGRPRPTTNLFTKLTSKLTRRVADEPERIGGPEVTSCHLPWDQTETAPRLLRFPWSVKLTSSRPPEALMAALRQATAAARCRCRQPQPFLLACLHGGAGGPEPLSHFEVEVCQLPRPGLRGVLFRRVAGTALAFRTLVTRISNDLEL

Sample 1
SMILES: CN([C@@H]1CCc2c(CC(=O)O)c3cc(S(C)(=O)=O)ccc3n2C1)S(=O)(=O)c1ccc(F)cc1
Concentration: 1 µM
It gave 100% for remaining binding (BMPR2 (Homo sapiens, UniProt Q13873); cell-free assay, competition with immobilised ligand).
The remaining binding was 36% (DYRK1B (Homo sapiens, UniProt Q9Y463); cell-free assay, competition with immobilised ligand).
For Aurora kinase C (AURKC, Homo sapiens, UniProt Q9UQB9); cell-free assay, competition with immobilised ligand: remaining binding read 78%.
The remaining binding was 100% (PRKD3 (Homo sapiens, UniProt O94806); cell-free assay, competition with immobilised ligand).
It gave 100% for remaining binding (CDK17 (Homo sapiens, UniProt Q00537); cell-free assay, competition with immobilised ligand).
Receptor-type tyrosine-protein kinase FLT3, autoinhibited (FLT3, Homo sapiens, UniProt P36888); cell-free assay, competition with immobilised ligand — remaining binding: 100%.
EGFR (Homo sapiens, UniProt P00533, T790M); cell-free assay, competition with immobilised ligand — remaining binding: 100%.
It gave 100% for remaining binding (MARK4 (Homo sapiens, UniProt Q96L34); cell-free assay, competition with immobilised ligand).
For ERN1 (Homo sapiens, UniProt O75460); cell-free assay, competition with immobilised ligand: remaining binding read 100%.
TAOK3 (Homo sapiens, UniProt Q9H2K8); cell-free assay, competition with immobilised ligand — remaining binding: 73%.
It gave 100% for remaining binding (AAK1 (Homo sapiens, UniProt Q2M2I8); binding).
The remaining binding was 100% (TTK (Homo sapiens, UniProt P33981); cell-free assay, competition with immobilised ligand).
It gave 91% for remaining binding (EGFR (Homo sapiens, UniProt P00533, L858R); cell-free assay, competition with immobilised ligand).
Ribosomal protein S6 kinase alpha-2, N-terminal kinase domain (RPS6KA2, Homo sapiens, UniProt Q15349); cell-free assay, competition with immobilised ligand — remaining binding: 99%.
The remaining binding was 98% (EPHA8 (Homo sapiens, UniProt P29322); cell-free assay, competition with immobilised ligand).
NEK5 (Homo sapiens, UniProt Q6P3R8); cell-free assay, competition with immobilised ligand — remaining binding: 100%.
FLT3 (Homo sapiens, UniProt P36888, D835V/ITD); cell-free assay, competition with immobilised ligand — remaining binding: 91%.
The remaining binding was 100% (EPHA7 (Homo sapiens, UniProt Q15375); cell-free assay, competition with immobilised ligand).

Sample 2
SMILES: COc1cc(C(=O)N2CCC(N3CCN(C)CC3)CC2)ccc1Nc1ncc2c(n1)N(C)c1ccccc1C(=O)N2C
Method: KINOMEscan
Concentration: 10 µM
Baseline: DMSO control
Reading: lower = stronger binding
It gave 100% for binding (EPHA1).
The binding was 100% (NEK9).
ACVRL1 — binding: 100%.
It gave 100% for binding (PIK3C2B).
For ADCK3: binding read 71%.
It gave 78% for binding (CDKL1).
The binding was 65% (PAK2).
For CAMK2A: binding read 21%.
ROCK2 — binding: 87%.
CAMK1G — binding: 74%.

Sample 3
Target: Cyclin-dependent kinase 6, with cyclin D1 (CDK6, Homo sapiens, UniProt Q00534)
Sequence of UniProt Q00534 (whole entry, looked up): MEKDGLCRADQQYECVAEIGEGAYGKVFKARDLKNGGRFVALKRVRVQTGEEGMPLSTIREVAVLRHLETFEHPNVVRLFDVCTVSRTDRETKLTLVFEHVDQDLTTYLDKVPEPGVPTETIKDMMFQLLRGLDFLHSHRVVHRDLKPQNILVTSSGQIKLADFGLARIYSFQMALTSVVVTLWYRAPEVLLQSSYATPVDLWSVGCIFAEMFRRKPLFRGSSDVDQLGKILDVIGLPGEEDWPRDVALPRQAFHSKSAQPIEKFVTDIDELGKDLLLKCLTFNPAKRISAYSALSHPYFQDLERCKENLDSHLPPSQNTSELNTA
Effect on: enzyme activity
Mode: inhibitor
Concentration: 0.5 µM
Baseline: control
`CC(C)c1nn(-c2c(Cl)cccc2Cl)c2nc(Cc3ccc(OCCO)cc3)[nH]c(=O)c12` gave a remaining activity of 19.8%.
For `Cc1ccc(NC(=O)c2ccc(CN3CCN(C)CC3)cc2)cc1Nc1nccc(-c2cccnc2)n1`, the remaining activity was 99%.
For `Cn1cnc2cc3c(Nc4cccc(Br)c4)ncnc3cc21`, the remaining activity was 107%.
The remaining activity of `Nc1[nH]nc2nnc(-c3c(-c4ccccc4)nn4ccccc34)cc12` is reported as 100%.
`CC(=O)O/N=C1/C(c2c(O)[nH]c3cc(Br)ccc23)=Nc2ccccc21` gave a remaining activity of 53.2%.
`CCOc1cc2ncnc(Nc3cccc(Br)c3)c2cc1OCC` gave a remaining activity of 102%.
With `COc1cc2ncnc(N3CCN(C(=O)Nc4ccc(Oc5ccccc5)cc4)CC3)c2cc1OC` the remaining activity was 95.1%.
With `Cn1cc(/C=C2\C(=O)Nc3ccc(S(N)(=O)=O)cc32)c2ccccc21` the remaining activity was 82.4%.
`O=C(Nc1ccc(Cl)cc1)c1ccccc1NCc1ccncc1` gave a remaining activity of 93.4%.
With `C[S+]([O-])c1ccc(-c2nc(-c3ccncc3)c(-c3ccc(F)cc3)[nH]2)cc1` (stereo not shown) the remaining activity was 100%.
The remaining activity of `COc1cc2ncnc(Nc3ccc(OCc4ccccc4)cc3)c2cc1OC` is reported as 96.7%.
`CCC(=O)Nc1ccc2ncnc(Nc3cccc(Br)c3)c2c1` gave a remaining activity of 92.5%.
`Cc1nc(Nc2ncc(C(=O)Nc3c(C)cccc3Cl)s2)cc(N2CCN(CCO)CC2)n1` gave a remaining activity of 95.5%.
`COc1cc2ncc(-c3ccccc3)nc2cc1OC` gave a remaining activity of 94.1%.
The remaining activity of `COc1ccc(-c2cnc3c(-c4ccsc4)cnn3c2)cc1` is reported as 53.4%.
With `O=c1cc(N2CCOCC2)oc2c1ccc1ccccc12` the remaining activity was 102%.
For `O=C1NC(=O)/C(=C/c2ccc3nccnc3c2)S1`, the remaining activity was 97.5%.
`CN(C)CCCn1cc(C2=C(c3c[nH]c4ccccc34)C(=O)NC2=O)c2ccccc21` gave a remaining activity of 58.3%.
`CCN1/C(=C/C(C)=O)Sc2ccc(OC)cc21` has a remaining activity of 108%.
With `COc1ccc(Cl)cc1NC(=O)Nc1cc(C)nc2ccccc12` the remaining activity was 89.8%.
For `CC(C)[C@H](CO)Nc1nc(Nc2cccc(Cl)c2)c2ncn(C(C)C)c2n1`, the remaining activity was 67.5%.
`CS(=O)(=O)CCNCc1ccc(-c2ccc3ncnc(Nc4ccc(OCc5cccc(F)c5)c(Cl)c4)c3c2)o1` gave a remaining activity of 100%.

Sample 4
Target: Calcium/calmodulin-dependent protein kinase type II subunit alpha (CAMK2A, Homo sapiens, UniProt Q9UQM7)
Sequence of UniProt Q9UQM7 (whole entry, looked up): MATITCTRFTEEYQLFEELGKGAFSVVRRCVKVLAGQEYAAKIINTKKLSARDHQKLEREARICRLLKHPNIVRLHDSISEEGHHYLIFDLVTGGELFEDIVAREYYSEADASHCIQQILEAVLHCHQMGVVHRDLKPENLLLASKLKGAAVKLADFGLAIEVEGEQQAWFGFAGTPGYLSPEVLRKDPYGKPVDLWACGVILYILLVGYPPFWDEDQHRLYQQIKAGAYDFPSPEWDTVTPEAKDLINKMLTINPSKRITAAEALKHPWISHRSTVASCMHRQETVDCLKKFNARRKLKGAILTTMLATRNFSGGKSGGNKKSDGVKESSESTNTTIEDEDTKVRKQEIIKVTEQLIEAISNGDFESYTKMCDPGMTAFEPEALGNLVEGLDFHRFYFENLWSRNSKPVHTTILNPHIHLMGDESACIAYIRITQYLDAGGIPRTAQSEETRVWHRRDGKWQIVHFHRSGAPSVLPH
Effect on: enzyme activity
Mode: inhibitor
Concentration: 10 µM
The inhibition of `COC(=O)c1ccccc1O` is reported as 7%.
With `COC(=O)/C=C/C(=O)O` the inhibition was -9%.
With `Cc1cccc(O)c1O` the inhibition was -9%.
For `Cc1c[nH]c(=O)[nH]c1=O`, the inhibition was -18%.
The inhibition of `O=C(O)[C@H]1O[C@@H](Oc2c(O)cc(O)c3c(=O)c(O)c(-c4ccc(O)c(O)c4)oc23)[C@H](O)[C@@H](O)[C@@H]1O` is reported as 68%.
The inhibition of `CCC(CC)[C@H](NC(C)=O)[C@@H]1[C@H](O)[C@@H](C(=O)O)C[C@H]1N=C(N)N` is reported as -12%.
`O=C(NCCN1CCOCC1)c1ccc(Cl)cc1` gave an inhibition of 5%.
`CCCNC(=O)NS(=O)(=O)c1ccc(Cl)cc1` gave an inhibition of 0%.

Excerpt of the above (sample 2):
For ADCK3: binding read 71%.
ACVRL1 — binding: 100%.
It gave 100% for binding (EPHA1).
ROCK2 — binding: 87%.
It gave 78% for binding (CDKL1).
CAMK1G — binding: 74%.
The binding was 65% (PAK2).
